{"sequences": {"note": "Chains of the proteins cited; added tags and fusions are not shown. Residues count along the entry.", "UniProt P18031, 1-321 limits assumed": "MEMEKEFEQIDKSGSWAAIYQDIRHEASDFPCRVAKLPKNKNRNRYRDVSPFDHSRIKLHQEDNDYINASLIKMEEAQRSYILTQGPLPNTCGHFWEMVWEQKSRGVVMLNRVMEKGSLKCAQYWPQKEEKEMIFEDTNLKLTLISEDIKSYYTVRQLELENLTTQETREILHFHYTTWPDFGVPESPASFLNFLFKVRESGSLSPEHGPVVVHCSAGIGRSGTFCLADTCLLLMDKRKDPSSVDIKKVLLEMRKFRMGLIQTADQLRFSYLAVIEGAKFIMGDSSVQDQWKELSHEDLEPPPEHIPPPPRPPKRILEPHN", "UniProt Q16539, whole entry": "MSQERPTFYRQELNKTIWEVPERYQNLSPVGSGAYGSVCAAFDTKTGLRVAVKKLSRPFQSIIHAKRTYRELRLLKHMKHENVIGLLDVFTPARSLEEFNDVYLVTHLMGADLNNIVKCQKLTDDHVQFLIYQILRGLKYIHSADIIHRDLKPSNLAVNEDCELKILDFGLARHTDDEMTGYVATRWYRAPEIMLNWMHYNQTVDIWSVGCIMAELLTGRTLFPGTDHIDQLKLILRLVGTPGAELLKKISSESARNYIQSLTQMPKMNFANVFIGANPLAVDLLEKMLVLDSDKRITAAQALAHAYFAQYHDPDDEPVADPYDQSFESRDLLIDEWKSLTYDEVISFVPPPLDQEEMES", "UniProt Q9M9V8, whole entry": "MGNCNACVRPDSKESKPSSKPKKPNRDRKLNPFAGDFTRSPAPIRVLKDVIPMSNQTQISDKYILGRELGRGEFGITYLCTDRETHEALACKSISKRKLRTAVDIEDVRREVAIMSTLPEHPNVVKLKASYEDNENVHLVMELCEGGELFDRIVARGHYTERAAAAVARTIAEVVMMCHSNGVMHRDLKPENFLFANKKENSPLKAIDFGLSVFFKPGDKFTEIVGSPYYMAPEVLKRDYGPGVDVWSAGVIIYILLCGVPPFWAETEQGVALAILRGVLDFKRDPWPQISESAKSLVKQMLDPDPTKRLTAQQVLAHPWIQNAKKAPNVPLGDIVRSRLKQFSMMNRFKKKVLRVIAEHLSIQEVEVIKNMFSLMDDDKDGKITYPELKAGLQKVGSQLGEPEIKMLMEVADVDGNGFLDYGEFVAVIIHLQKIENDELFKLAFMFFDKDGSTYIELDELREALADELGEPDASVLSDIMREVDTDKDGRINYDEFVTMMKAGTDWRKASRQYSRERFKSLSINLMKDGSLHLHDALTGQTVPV", "UniProt P11388, whole entry": "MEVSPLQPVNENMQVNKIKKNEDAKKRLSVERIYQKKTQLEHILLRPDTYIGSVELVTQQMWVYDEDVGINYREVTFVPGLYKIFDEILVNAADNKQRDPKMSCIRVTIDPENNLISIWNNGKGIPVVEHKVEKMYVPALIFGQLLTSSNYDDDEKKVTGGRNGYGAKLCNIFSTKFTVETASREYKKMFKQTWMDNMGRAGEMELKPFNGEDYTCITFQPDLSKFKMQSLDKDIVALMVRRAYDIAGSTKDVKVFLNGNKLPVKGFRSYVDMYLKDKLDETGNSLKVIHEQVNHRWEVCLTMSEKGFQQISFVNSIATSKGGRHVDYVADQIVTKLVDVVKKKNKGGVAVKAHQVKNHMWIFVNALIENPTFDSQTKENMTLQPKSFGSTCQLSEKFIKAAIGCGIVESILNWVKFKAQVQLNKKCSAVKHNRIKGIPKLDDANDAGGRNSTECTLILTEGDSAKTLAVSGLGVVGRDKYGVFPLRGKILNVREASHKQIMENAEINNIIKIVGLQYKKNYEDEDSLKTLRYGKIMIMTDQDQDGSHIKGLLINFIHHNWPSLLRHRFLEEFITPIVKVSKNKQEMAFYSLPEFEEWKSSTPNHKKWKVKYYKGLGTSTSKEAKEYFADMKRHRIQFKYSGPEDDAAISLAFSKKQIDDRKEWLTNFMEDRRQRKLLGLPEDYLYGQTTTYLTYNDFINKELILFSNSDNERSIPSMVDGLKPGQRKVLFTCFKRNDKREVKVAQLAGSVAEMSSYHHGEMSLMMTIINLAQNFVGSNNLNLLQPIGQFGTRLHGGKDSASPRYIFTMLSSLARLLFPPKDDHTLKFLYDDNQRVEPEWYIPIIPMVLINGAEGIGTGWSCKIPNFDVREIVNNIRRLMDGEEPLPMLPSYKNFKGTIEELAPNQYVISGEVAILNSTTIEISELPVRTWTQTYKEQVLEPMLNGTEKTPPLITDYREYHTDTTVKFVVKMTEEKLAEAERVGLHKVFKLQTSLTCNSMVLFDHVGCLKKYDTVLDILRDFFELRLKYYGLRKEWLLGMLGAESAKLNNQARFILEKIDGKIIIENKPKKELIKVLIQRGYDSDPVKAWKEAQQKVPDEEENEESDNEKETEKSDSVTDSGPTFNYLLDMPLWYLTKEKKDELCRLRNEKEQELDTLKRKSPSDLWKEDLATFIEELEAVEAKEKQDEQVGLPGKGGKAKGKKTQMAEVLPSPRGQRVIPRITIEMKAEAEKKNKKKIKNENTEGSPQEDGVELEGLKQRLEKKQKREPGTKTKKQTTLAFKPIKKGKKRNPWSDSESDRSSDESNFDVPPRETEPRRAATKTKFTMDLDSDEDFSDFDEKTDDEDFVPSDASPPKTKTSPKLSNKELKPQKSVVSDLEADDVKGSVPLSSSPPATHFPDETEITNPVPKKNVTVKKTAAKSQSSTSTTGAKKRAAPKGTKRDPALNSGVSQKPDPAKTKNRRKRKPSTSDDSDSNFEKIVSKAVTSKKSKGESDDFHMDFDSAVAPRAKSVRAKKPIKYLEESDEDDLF", "UniProt Q00959, 23-1464 limits assumed": "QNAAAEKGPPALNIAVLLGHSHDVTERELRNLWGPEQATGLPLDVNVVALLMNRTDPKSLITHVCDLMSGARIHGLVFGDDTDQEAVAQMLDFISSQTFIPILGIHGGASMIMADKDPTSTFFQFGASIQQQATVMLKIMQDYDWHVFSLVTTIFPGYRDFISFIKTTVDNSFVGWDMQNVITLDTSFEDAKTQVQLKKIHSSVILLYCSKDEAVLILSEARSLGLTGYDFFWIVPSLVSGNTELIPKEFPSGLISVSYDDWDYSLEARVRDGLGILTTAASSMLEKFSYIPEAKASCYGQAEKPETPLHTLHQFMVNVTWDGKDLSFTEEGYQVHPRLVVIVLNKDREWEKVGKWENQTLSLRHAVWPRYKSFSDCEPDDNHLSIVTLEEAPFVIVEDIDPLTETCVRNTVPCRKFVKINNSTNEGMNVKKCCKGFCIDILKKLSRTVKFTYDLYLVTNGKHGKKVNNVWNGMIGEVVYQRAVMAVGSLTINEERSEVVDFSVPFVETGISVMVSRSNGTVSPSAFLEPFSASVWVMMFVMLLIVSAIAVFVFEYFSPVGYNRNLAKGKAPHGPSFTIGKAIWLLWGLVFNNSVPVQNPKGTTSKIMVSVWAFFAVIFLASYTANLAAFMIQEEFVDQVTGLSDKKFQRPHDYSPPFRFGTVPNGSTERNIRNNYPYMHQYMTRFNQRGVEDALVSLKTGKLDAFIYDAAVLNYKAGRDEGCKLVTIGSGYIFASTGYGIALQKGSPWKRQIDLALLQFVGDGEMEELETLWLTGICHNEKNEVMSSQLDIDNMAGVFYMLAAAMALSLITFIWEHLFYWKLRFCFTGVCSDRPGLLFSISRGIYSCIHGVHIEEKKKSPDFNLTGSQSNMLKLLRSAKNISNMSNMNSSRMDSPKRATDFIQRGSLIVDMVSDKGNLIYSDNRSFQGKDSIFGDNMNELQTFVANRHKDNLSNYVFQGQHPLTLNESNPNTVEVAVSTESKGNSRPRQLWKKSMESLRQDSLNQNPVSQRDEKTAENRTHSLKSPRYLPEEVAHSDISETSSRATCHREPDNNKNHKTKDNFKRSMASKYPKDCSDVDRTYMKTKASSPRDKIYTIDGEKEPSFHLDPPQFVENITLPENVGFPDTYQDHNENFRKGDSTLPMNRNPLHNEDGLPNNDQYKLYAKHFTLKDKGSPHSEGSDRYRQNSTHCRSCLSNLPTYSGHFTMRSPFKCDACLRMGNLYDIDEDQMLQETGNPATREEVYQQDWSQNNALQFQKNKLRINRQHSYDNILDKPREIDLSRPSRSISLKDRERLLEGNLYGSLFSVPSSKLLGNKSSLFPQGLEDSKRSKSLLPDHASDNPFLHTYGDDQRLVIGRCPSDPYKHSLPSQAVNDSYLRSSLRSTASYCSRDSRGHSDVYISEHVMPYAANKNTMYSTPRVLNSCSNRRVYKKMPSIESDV", "UniProt Q99250, whole entry": "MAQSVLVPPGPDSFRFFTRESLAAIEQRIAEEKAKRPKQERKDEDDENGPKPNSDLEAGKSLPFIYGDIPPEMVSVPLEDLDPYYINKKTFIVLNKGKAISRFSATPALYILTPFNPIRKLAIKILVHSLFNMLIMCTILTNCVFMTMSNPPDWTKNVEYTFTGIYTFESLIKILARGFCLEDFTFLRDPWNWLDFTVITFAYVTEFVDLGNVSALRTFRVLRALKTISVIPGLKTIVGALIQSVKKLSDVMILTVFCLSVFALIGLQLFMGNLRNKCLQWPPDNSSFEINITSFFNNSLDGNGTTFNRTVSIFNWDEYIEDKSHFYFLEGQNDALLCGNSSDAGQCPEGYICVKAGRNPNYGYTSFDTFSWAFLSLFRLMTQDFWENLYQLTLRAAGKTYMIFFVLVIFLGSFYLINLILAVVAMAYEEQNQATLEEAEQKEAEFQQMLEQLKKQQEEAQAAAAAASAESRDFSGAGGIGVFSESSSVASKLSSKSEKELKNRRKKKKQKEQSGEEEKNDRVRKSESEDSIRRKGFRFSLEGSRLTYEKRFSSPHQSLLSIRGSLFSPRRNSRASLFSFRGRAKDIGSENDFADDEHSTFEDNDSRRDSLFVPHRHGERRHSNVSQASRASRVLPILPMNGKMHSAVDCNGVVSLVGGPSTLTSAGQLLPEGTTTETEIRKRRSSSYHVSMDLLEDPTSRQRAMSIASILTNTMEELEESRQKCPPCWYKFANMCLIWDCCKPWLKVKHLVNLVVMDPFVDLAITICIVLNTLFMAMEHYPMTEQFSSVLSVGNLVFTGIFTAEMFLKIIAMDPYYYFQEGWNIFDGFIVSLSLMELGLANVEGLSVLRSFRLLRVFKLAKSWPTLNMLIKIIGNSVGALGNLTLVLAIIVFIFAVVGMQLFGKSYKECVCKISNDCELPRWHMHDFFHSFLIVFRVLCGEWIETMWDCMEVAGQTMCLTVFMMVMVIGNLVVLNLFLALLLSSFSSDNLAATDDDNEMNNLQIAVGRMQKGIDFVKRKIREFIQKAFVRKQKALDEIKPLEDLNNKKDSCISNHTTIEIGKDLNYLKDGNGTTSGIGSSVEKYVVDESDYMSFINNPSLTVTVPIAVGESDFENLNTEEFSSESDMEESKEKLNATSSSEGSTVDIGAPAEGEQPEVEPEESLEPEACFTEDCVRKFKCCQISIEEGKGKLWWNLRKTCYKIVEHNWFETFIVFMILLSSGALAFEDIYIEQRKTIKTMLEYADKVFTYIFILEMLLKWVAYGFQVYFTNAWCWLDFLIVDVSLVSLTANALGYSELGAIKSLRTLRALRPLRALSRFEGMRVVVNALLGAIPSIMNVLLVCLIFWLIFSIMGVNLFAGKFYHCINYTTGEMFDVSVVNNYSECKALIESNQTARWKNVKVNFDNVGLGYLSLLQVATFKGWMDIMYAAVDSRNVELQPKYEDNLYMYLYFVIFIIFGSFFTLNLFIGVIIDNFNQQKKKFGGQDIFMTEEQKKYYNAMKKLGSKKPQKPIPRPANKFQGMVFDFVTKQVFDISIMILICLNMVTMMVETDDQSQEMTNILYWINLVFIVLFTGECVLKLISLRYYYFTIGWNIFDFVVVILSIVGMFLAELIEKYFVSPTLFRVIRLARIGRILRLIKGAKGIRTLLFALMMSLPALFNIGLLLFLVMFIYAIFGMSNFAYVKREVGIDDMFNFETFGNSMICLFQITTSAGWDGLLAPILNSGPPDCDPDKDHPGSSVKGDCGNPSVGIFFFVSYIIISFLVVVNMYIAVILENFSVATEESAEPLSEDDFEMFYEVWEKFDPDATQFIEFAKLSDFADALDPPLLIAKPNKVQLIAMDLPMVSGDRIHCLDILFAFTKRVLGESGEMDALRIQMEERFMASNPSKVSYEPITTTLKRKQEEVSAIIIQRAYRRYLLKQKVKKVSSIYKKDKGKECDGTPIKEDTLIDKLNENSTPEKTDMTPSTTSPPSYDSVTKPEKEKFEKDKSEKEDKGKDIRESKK"}, "data": "Measured values collected from several papers", "PTPN1": "Tyrosine-protein phosphatase non-receptor type 1 (PTPN1, Homo sapiens, UniProt P18031)", "MDM4": "Protein Mdm4 (MDM4, Homo sapiens, UniProt O15151)", "note": "Compare with care: the assays were run in different laboratories. ± gives the spread as reported."}
{"Compound": "CC(=O)NCCCC[C@H](NC(=O)[C@H](CCCCNC(C)=O)NC(=O)[C@H](Cc1c[nH]cn1)NC(=O)[C@H](CCCNC(=N)N)NC(C)=O)C(=O)Nc1ccc2c(C)cc(=O)oc2c1", "tested on": "Histone deacetylase 8 (HDAC8, Homo sapiens, UniProt Q9BY41)", "assay": "deacetylation, substrate", "setting": "25 °C, with: 150 nM enzyme", "quantity": "kcat", "value": "0.34 ± 0.06 s⁻¹"}
{"Compound": "CC(C)C[C@H](NC(=O)[C@H](C)NC(=O)[C@H](CCCNC(=N)N)NC(=O)[C@H](CCCNC(=N)N)NC(=O)[C@H](CCCNC(=N)N)NC(=O)[C@H](C)NC(=O)[C@H](CC(C)C)NC(=O)[C@H](CCCNC(=N)N)NC(=O)[C@H](CO)NC(=O)[C@H](CCCCN)NC(=O)[C@H](CO)NC(=O)Cn1cc(COC(=O)[C@]2(C)C=C(C(=O)OC(C)(C)C)C(=O)CC2)nn1)C(=O)O", "tested on": "Mitogen-activated protein kinase 14 (MAPK14, Homo sapiens, UniProt Q16539)", "assay": "binding, competitor, fluorescence polarization", "setting": "2.5 µM", "scale": "higher = less displacement", "quantity": "fraction bound", "value": -0.0207}
{"Compound": "CC[C@H](C)[C@H](NC(=O)[C@H](CC(=O)O)NC(=O)[C@@H]1CCCN1C(=O)[C@H](Cc1ccc(O)cc1)NC(=O)[C@H](Cc1ccc(O)cc1)NC(=O)[C@H](Cc1ccc(O)cc1)NC(=O)[C@H](CC(=O)O)NC(=O)[C@@H](NC(=O)[C@@H](N)C(C)C)[C@@H](C)O)C(=O)O", "tested on": "Protein-tyrosine sulfotransferase 2 (Homo sapiens, UniProt O60704)", "assay": "sulfation of compound, substrate, LC-MS initial velocity", "setting": "pH 7.5, 30 °C, reaction 1", "quantity": "Vmax", "value": "7.1 mU/mg protein"}
{"Compound": "CC(C)CC(NC(=O)C(Cc1ccccc1)NC(=O)c1cnc(C(=O)NC(Cc2ccccc2)C(=O)NC(CC(C)C)B(O)O)cn1)B(O)O (centres unmarked)", "tested on": "proteasome (human)", "assay": "trypsin-like activity, inhibitor, Proteasome-Glo", "test system": "RPMI-8226", "setting": "24 h", "quantity": "IC50", "value": "> 0.018 µM"}
{"Compound": "CC[C@H](C)[C@H](NC(=O)[C@H](CCCNC(=N)N)NC(=O)[C@H](CO)NC(=O)[C@@H](NC(=O)[C@@H](NC(=O)[C@H](CCCCN)NC(=O)[C@@H](N)C(C)C)[C@@H](C)CC)[C@@H](C)CC)C(=O)N[C@@H](Cc1ccccc1)C(=O)N[C@@H](CO)C(=O)N[C@@H](CCC(N)=O)C(=O)N[C@@H](CCCNC(=N)N)C(=O)N[C@@H](CO)C(=O)N[C@@H](Cc1ccccc1)C(=O)N[C@@H](CCCNC(=N)N)C(=O)N[C@@H](CCCNC(=N)N)C(=O)O", "tested on": "Calcium-dependent protein kinase 10 (CPK10, Arabidopsis thaliana, UniProt Q9M9V8)", "assay": "peptide phosphorylation, substrate, scintillation proximity", "setting": "20 µM, 24 min, with: 10 µM ATP", "scale": "baseline: no peptide control, higher = more phosphorylation", "quantity": "relative phosphorylation", "value": "24 fold"}
{"Compound": "CC/C=C\\C/C=C\\CCC/C=C/C=C/C=C\\CCCC(=O)O", "tested on": "DNA topoisomerase 2-alpha (TOP2A, Homo sapiens, UniProt P11388)", "assay": "catalytic activity, inhibitor, gel", "setting": "with: 2 units topo II, pBR322", "quantity": "IC50", "value": "2.5 ± 0.3 µM"}
{"Compound": "CC(C)C[C@H](NC(=O)[C@@H](NC(=O)[C@H](CC(C)C)NC(=O)[C@H](CS)NC(=O)CNS(=O)(=O)c1cccc2c(N(C)C)cccc12)C(C)C)C(=O)O", "tested on": "geranylgeranyltransferase type-I (Rattus norvegicus, UniProt P53610+Q04631)", "assay": "substrate, fluorescence", "setting": "30 °C, GGPP 10 µM/enzyme 10 nM, with: SmgGDS-558 5 µM", "quantity": "kcat", "value": "0.039 ± 0.012 s⁻¹"}
{"Compound": "CC[C@H](C)[C@H](NC(=O)[C@H](CCCNC(=N)N)NC(=O)[C@H](CCCCN)NC(=O)[C@H](CCCNC(=N)N)NC(=O)[C@H](C)NC(C)=O)C(=O)N[C@@H](Cc1ccc(OP(=O)(O)O)cc1)C(=O)N[C@@H](C)C(=O)N[C@@H](C)C(N)=O", "tested on": "PTPN1", "assay": "substrate, continuous UV", "setting": "pH 7.4, multiply phosphorylated peptides apparent", "quantity": "Km", "value": "> 500 µM"}
{"Compound": "N#Cc1c(-c2ccc(Cl)cc2Cl)n(-c2nc(-c3ccc(Cl)cc3)c3c(NC(=O)c4ccccc4)nnc-3[nH]2)[nH]c1=O", "tested on": "TK-10", "assay": "SRB", "setting": "10 µM", "quantity": "cell growth", "value": "56.2%"}
{"Compound": "CC(C)C[C@@H]1NC(=O)[C@H](CO)NC(=O)[C@H](Cc2ccccc2)NC(=O)[C@H](CCCNC(=N)N)NC(=O)[C@H](C(C)C)NC(=O)CNC(=O)[C@H](Cc2c[nH]c3ccccc23)NC(=O)[C@H](CCCNC(=N)N)NC(=O)[C@H](Cc2c[nH]cn2)NC(=O)[C@@H](NC(=O)[C@H](C)N)CSSC[C@@H](C(=O)N[C@@H](CO)C(=O)NCC(=O)O)NC1=O", "tested on": "Chymotrypsinogen A, alpha-chymotrypsin active form (Bos taurus, UniProt P00766)", "assay": "yeast display flow cytometry", "setting": "concentration not given, 1 h, 4 °C, target at 10-fold KDapp, with: aprotinin, ≥100-fold molar excess", "scale": "baseline: target without aprotinin", "quantity": "residual binding", "value": "75%"}
{"Compound": "CN1C(=O)CCc2cc(CNC(C)(C)[C@@H](O)c3ccccc3)ccc21", "test system": "male CD-1 mouse, brain", "setting": "subcutaneous, 10 mg/kg", "quantity": "AUC(0-inf)", "value": "327000 ng·min/mL/g"}
{"Compound": "COc1cccc([C@@H]2N=C(c3ccc(OC)cc3OC(C)C)N(C(=O)N3CCNC(=O)C3)[C@@H]2c2ccc(Cl)cc2)c1 (relative stereo)", "tested on": "MDM4", "assay": "isothermal titration calorimetry", "setting": "298 K", "quantity": "ΔH", "value": "-7.7 ± 2 kcal/mol"}
{"Compound": "NC12CC3CC(F)(CC(C1)c1ccccc13)C2", "tested on": "Glutamate NMDA receptor; Grin1/Grin2a (Grin1/Grin2a, Rattus norvegicus, UniProt P35439+Q00959)", "assay": "ion current, channel blocker, whole-cell patch clamp", "setting": "with: 0.2 mM Mg2+", "scale": "baseline: IC50 with over without Mg2+", "quantity": "IC50 fold shift", "value": "~5 fold"}
{"Compound": "COc1ccc(C2=N[C@@H](c3cccc(Cl)c3)[C@@H](c3ccc(Cl)cc3)N2C(=O)N2CCNC(=O)C2)c(OC(C)C)c1 (relative stereo)", "tested on": "MDM4", "assay": "isothermal titration calorimetry", "setting": "298 K", "quantity": "ΔG", "value": "-7.3 ± 0.4 kcal/mol"}
{"Compound": "CC(=O)C12NC(C)(C)CC1(C)C(=O)C1=C2c2c(c3c4n2C(C)(C)CC2=C4C4(CC(C)(C)NC(C)(C4)C2=O)CC3(C)C)C(=O)C(C)(C)N1 (single isomer, unassigned)", "tested on": "Sodium channel protein type 2 subunit alpha (SCN2A, Homo sapiens, UniProt Q99250)", "assay": "sodium current", "setting": "40 µM", "quantity": "inhibition", "value": "61 ± 0.04%"}
{"Compound": "CC[C@H](C)[C@H](NC(=O)[C@@H]1CCCN1C(=O)CNC(=O)[C@H](CC(C)C)NC(=O)[C@H](COP(=O)(O)O)NC(=O)[C@H](CC(N)=O)NC(=O)[C@H](CO)NC(=O)[C@H](Cc1c[nH]cn1)NC(=O)[C@H](CCCNC(=N)N)NC(=O)[C@H](CCC(N)=O)NC(=O)[C@H](CC(C)C)NC(C)=O)C(=O)N[C@@H](Cc1ccccc1)C(=O)N[C@@H](CC(=O)O)C(N)=O", "tested on": "14-3-3 protein gamma (YWHAG, Homo sapiens, UniProt P61981)", "assay": "isothermal titration calorimetry", "setting": "37 °C", "quantity": "TΔS", "value": "-1.2 kcal/mol"}
{"Compound": "CCOC(=O)c1c(-c2ccc(Cl)cc2Cl)n(-c2nc(-c3ccc(Cl)cc3)c3c(NC(=O)c4ccccc4)nnc-3[nH]2)[nH]c1=O", "tested on": "TK-10", "assay": "SRB", "setting": "10 µM", "quantity": "cell growth", "value": "64%"}
{"Compound": "C=C(C)C(=O)Nc1ccc(-c2c(-c3ccc(Oc4nccc(C)n4)c(F)c3)c3c(N)ncnc3n2C)cc1", "tested on": "ESS-1", "assay": "cell growth, CellTiter-Glo", "setting": "120 h, unit not given", "scale": "baseline: untreated growth rate, higher = stronger inhibition", "quantity": "area over GR curve", "value": 0.406}
{"Compound": "CN(C)CCNC(=O)c1cc([N+](=O)[O-])cc2ccc(-c3ccccc3)nc12", "tested on": "Ribosyldihydronicotinamide dehydrogenase [quinone] (NQO2, Homo sapiens, UniProt P16083)", "assay": "from IC50 by Cheng-Prusoff", "quantity": "binding free energy", "value": "-10.2 kcal/mol"}
{"Compound": "CC(=O)N[C@@H](C)C(=O)N[C@@H](Cc1ccc(OP(=O)(O)O)cc1)C(=O)N[C@@H](Cc1ccc(OP(=O)(O)O)cc1)C(=O)N[C@@H](CCC(=O)O)C(=O)N[C@H](C(=O)N[C@@H](CO)C(=O)N[C@@H](Cc1ccc(OP(=O)(O)O)cc1)C(=O)N[C@@H](C)C(=O)N[C@@H](C)C(N)=O)C(C)C", "tested on": "PTPN1", "assay": "substrate, continuous UV", "setting": "pH 7.4, multiply phosphorylated peptides apparent", "quantity": "Km", "value": "2 ± 0.4 µM"}
{"note": "Repeated from above:"}
{"Compound": "CC(C)CC(NC(=O)C(Cc1ccccc1)NC(=O)c1cnc(C(=O)NC(Cc2ccccc2)C(=O)NC(CC(C)C)B(O)O)cn1)B(O)O (centres unmarked)", "tested on": "proteasome (human)", "assay": "trypsin-like activity, inhibitor, Proteasome-Glo", "test system": "RPMI-8226", "setting": "24 h", "quantity": "IC50", "value": "> 0.018 µM"}
{"Compound": "CC(=O)C12NC(C)(C)CC1(C)C(=O)C1=C2c2c(c3c4n2C(C)(C)CC2=C4C4(CC(C)(C)NC(C)(C4)C2=O)CC3(C)C)C(=O)C(C)(C)N1 (single isomer, unassigned)", "tested on": "Sodium channel protein type 2 subunit alpha (SCN2A, Homo sapiens, UniProt Q99250)", "assay": "sodium current", "setting": "40 µM", "quantity": "inhibition", "value": "61 ± 0.04%"}
{"Compound": "COc1cccc([C@@H]2N=C(c3ccc(OC)cc3OC(C)C)N(C(=O)N3CCNC(=O)C3)[C@@H]2c2ccc(Cl)cc2)c1 (relative stereo)", "tested on": "MDM4", "assay": "isothermal titration calorimetry", "setting": "298 K", "quantity": "ΔH", "value": "-7.7 ± 2 kcal/mol"}
